# Measurements gathered from unrelated publications.
# Lines come from different studies, so protocols differ. Values joined by “and” are separate records of one study, mostly repeats; a detail may differ. ± marks the error that the study gave.
Compound,organism,assay,system,conditions,scale,endpoint,value
C[C@H]1c2cccc(O)c2C(=O)C2=C(O)[C@]3(O)C(=O)C(C(N)=O)=C(O)[C@@H](N(C)C)[C@@H]3[C@@H](O)[C@@H]21,Brugia malayi,,"SCID mouse, peritoneal cavity","dose not given, 6 weeks post-treatment, dosing x42d",,maximum microfilaria count,733 microfilariae per mouse
Fc1cccc(N/N=C/c2ccc(-c3cccc(/C=N/Nc4cccc(F)c4)c3)cc2)c1,Aspergillus terreus,,ATCC MYA-3633,,relative to: mammalian CC50 over MIC,selectivity ratio,< 0.4
COc1cc2c(cc1OC)[C@@H]1C(=O)c3ccc4c(c3O[C@@H]1CO2)C=CC(C)(C)O4,human adenovirus C5 wild type,qPCR,A549,"10 µM, 24 h post-infection",relative to: DMSO control,viral genome replication,decreased
CC(=Nc1ccc(N=Cc2cnccn2)cc1)N(C)C,Necator americanus,,infected hamsters,"oral, 50 mg/kg single",relative to: untreated,worm burden reduction,100%
COc1ccc(Nc2cnnc3cc(-c4cnc(N5CCN(C)CC5)nc4)ccc23)cc1Cl,Schistosoma mansoni,,adult worms,"10 µM, 1 h",direction not given,phenotypic severity score,1
CC(C)[C@@H](C)Nc1nc(-c2cccs2)nc(Cl)c1-c1c(F)cc(N)cc1F,Schistosoma mansoni,worm motility,adult worms ex vivo,24 h,,EC50,< 0.3 µM
Nc1nc(-c2ccccc2)nc2[nH]nc(Nc3ccc(C(F)(F)F)cc3)c12,coxsackievirus B3,,"31-1-93, NMRI mice, CVB3 chronic myocarditis","oral, 100 mg/kg twice daily, day 21, dosed days 0 to 6, score scale 0 to 7",direction not given,clinical score,0
CN1CCN(c2ccc(-c3ccc4c(Nc5cnccn5)cnnc4c3)cc2)CC1,Schistosoma mansoni,,adult worms,"10 µM, 5 h",direction not given,phenotypic severity score,0
N=C(N)c1ccc(OCc2ccccc2COc2ccc(C(=N)N)cc2)cc1,Escherichia coli,checkerboard,mcr-2 polymyxin-resistant,"concentration not given, 20 h, together with: rifampicin",,MIC of compound in combination,25 µg/mL
CN(C)c1ccc(O)c2c1C[C@H]1C[C@H]3[C@H](N(C)C)C(O)=C(C(N)=O)C(=O)[C@@]3(O)C(O)=C1C2=O,Brugia malayi,,"SCID mouse, peritoneal cavity","dose not given, 6 weeks post-treatment, dosing x28d",,maximum microfilaria count,0 microfilariae per mouse
Cc1ccc(Nc2cnnc3ccc(-c4ccc(N5CCCN(C)CC5)cc4)cc23)cn1,Schistosoma mansoni,,adult worms,"10 µM, 48 h",direction not given,phenotypic severity score,4
CO[C@H]1/C=C/O[C@@]2(C)Oc3c(C)c(O)c4c(c3C2=O)C2=NC3(CCN(CC(C)C)CC3)NC2=C(NC(=O)/C(C)=C\C=C\[C@H](C)[C@H](O)[C@@H](C)[C@@H](O)[C@@H](C)[C@H](OC(C)=O)[C@@H]1C)C4=O,Mycobacteroides abscessus,,"ATCC 19977, caseum surrogate","5 d, non-replicating",,MBC,72 µM
C(=N\Nc1ccccc1)/c1ccc(-c2ccc(/C=N/Nc3ccccc3)cc2)cc1,Candida albicans,,ATCC MYA-1237 resistant,,relative to: mammalian CC50 over MIC,selectivity index,< 0.6
Cc1ccc(Nc2cnnc3ccc(-c4ccc(S(=O)(=O)N5CCN(C)CC5)cc4)cc23)cn1,Schistosoma mansoni,,adult worms,"10 µM, 48 h",direction not given,phenotypic severity score,2
CC1=C(Cc2cn(CCN3CCC(F)(F)CC3)nn2)C(=O)c2ccccc2C1=O,Schistosoma mansoni,,adult worms,"10 µM, 48 h",,killing,41.6%
COc1ccc(Nc2cnnc3ccc(-c4cnc(N5CCCN(C)CC5)nc4)cc23)cc1Cl,Schistosoma mansoni,,adult worms,"10 µM, 48 h",direction not given,phenotypic severity score,2
COC(=O)[C@H](Cc1c[nH]c2ccccc12)NCc1cc2ccccc2nc1SC,Pseudomonas aeruginosa,,,"64 µg/mL, together with: pentamidine 100 µM",relative to: control,growth,58.2%
Cc1ccc(NC(=O)N2Cc3[nH]cnc3C[C@H]2c2nc(-c3ccc4c(c3)OCO4)no2)cc1,Caenorhabditis elegans,,N2,3.125 µM,,median lifespan,21 days
CC1=C(Cn2cc(C(C)(C)O)nn2)C(=O)c2ccccc2C1=O,Schistosoma mansoni,,adult worms,"10 µM, 48 h",,killing,40.8%
OC(Cn1cncn1)(Cn1cncn1)c1ccc(F)cc1F,Candida albicans,broth microdilution,50,"24 h, compound alone",,MIC,4 µg/mL
O=[N+]([O-])c1cc(F)c(-c2c(Cl)nc(-c3cccs3)nc2NCC2CCC2)c(F)c1,Schistosoma mansoni,worm motility,adult worms ex vivo,24 h,,EC50,< 0.3 µM
C=C1[C@H](CO)[C@@H](O)C[C@@H]1n1cnc2c(=O)[nH]c(N)nc21,Hepatitis B virus,measured: HBV pgRNA,chronic HBV non-responders,0.5 mg/day,relative to: baseline,change in serum pgRNA,< 0.5 log10 copies/mL
CN1CCN(S(=O)(=O)c2ccc(-c3ccc4nncc(Nc5cnccn5)c4c3)cc2)CC1,Schistosoma mansoni,,adult worms,"10 µM, 24 h",direction not given,phenotypic severity score,0
CC1=C(Cc2cn(CCOS(=O)(=O)c3ccc(C)cc3)nn2)C(=O)c2ccccc2C1=O,Schistosoma mansoni,,adult worms,"25 µM, 24 h",,killing,34%
CN1CCN(c2ncc(-c3ccc4nncc(Nc5cnccn5)c4c3)cn2)CC1,Schistosoma mansoni,,adult worms,"10 µM, 1 h",direction not given,phenotypic severity score,0
C[C@H](CCCC(C)(C)O)[C@H]1CC[C@H]2[C@@H]3CC=C4C[C@@H](O)CC[C@]4(C)[C@H]3CC[C@]12C,Human rotavirus,,"Caco-2, Wa",,,EC50,0.19 µM
CC(C)n1ncc2c(C(=O)NCC3(C)CNC3)cc(C3CC3)nc21,Enterovirus D68,viral replication,"RD, recombinant wild-type US/MO/14-18947",0.001 µM,relative to: untreated,plaque area,94.1% and 106%
CC1=C(Cc2cn(CCN3CCN(C(=O)OC(C)(C)C)CC3)nn2)C(=O)c2ccccc2C1=O,Schistosoma mansoni,,adult worms,"10 µM, 24 h",,killing,29.6%
N=C(N)c1ccc(OCc2cccc(COc3ccc(C(=N)N)cc3)c2)cc1,Escherichia coli,,BW25113,"concentration not given, lowest-FICI combination, together with: erythromycin",,MIC in combination,25 µg/mL
COC(=O)[C@H](Cc1ccc(O)cc1)NCc1cc2ccccc2nc1SC,Pseudomonas aeruginosa,,,"2 µg/mL, together with: pentamidine 50 µM",relative to: control,growth,100%
CC(=O)ON=C1C=CC(=C(C#N)c2ccccc2)C=C1,Kluyveromyces marxianus,broth dilution,ATCC 204093,"48 h, 37 °C",,MFC,16 µg/mL
CC(C)[C@@H](C)Nc1nc(-c2cccs2)nc(Cl)c1-c1c(F)cc(O)cc1F,Schistosoma mansoni,worm motility,adult worms ex vivo,24 h,,EC50,0.65 µM
CC1=C(Cn2cc([Si](C)(C)C)nn2)C(=O)c2ccccc2C1=O,Schistosoma mansoni,,adult worms,"25 µM, 48 h",,killing,51%
CCc1nn(C)c2nc(-c3ccc(C(=O)O)cc3)nc(NCc3ccc(F)cc3)c12,Cryptosporidium parvum,,HCT-8,"6 x EC90, 6 h",relative to: DMSO control,parasite number,95.6% and 123% and 81.7% and 107%
CN[C@H](CC(C)C)C(=O)N[C@H]1C(=O)N[C@@H](CC(N)=O)C(=O)N[C@H]2C(=O)N[C@H]3C(=O)N[C@H](C(=O)N[C@H](C(=O)O)c4cc(O)cc(O)c4-c4cc3ccc4O)[C@H](O)c3ccc(c(Cl)c3)Oc3cc2cc(c3O[C@@H]2O[C@H](CO)[C@@H](O)[C@H](O)[C@H]2O[C@H]2C[C@](C)(N)[C@H](O)[C@H](C)O2)Oc2ccc(cc2Cl)[C@H]1O,Staphylococcus aureus,,"MRSA, 10 isolates",serum 0%,,MIC50,2 µg/mL
CC1=C(Cn2cc(CN3CCOCC3)nn2)C(=O)c2ccccc2C1=O,Schistosoma mansoni,,adult worms,"10 µM, 24 h",,killing,29.6%
COc1ccc(Nc2cnnc3cc(-c4ccc(N5CCN(C)CC5)cc4)ccc23)cc1,Schistosoma mansoni,,adult worms,"10 µM, 5 h",direction not given,phenotypic severity score,0
COC(=O)[C@@H](NCc1cc2ccccc2nc1OCc1ccccc1)C(C)C,Pseudomonas aeruginosa,,,"8 µg/mL, together with: pentamidine 50 µM",relative to: control,growth,101%
CC1=C(Cn2cc(CN3CCNCC3)nn2)C(=O)c2ccccc2C1=O,Schistosoma mansoni,,adult worms,"10 µM, 48 h",,killing,46.2%
Cc1cc(OC(C)C)ccc1C(=O)C(C)(C)NC(=O)c1sccc1C,Botrytis cinerea,germ tube elongation,B05.10,10 µg/mL,,inhibition,98 ± 3.4%
CC1=C(Cc2cn(CCO)nn2)C(=O)c2ccccc2C1=O,Schistosoma mansoni,,adult worms,"10 µM, 72 h",,killing,64.7%
C#CCON=C1C=CC(=C(C#N)c2ccccc2)C=C1,Kluyveromyces marxianus,broth dilution,ATCC 204093,"48 h, 37 °C",,MFC,16 µg/mL

# Some of these lines once more:
Compound,organism,assay,system,conditions,scale,endpoint,value
CC1=C(Cn2cc(CN3CCNCC3)nn2)C(=O)c2ccccc2C1=O,Schistosoma mansoni,,adult worms,"10 µM, 48 h",,killing,46.2%
Cc1cc(OC(C)C)ccc1C(=O)C(C)(C)NC(=O)c1sccc1C,Botrytis cinerea,germ tube elongation,B05.10,10 µg/mL,,inhibition,98 ± 3.4%
